Measured values of several laboratories.
Each line is one published result; not all experiments were run side by side.
T1: DNA aptamer; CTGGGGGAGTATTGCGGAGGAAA
T2: DNA aptamer, truncated, engineered stem; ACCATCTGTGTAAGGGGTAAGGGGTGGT
T3: DNA aptamer; CGGGGTGAAACGGGTCCCG
T4: DNA aptamer 25 nt core; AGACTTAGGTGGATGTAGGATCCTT
T5: DNA aptamer; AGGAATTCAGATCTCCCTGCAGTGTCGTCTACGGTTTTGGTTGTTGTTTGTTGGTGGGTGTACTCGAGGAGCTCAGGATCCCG
T6: DNA aptamer; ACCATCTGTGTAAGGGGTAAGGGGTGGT
T7: DNA aptamer 50 nt truncation; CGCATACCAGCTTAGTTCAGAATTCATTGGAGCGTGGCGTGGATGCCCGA
T8: DNA aptamer; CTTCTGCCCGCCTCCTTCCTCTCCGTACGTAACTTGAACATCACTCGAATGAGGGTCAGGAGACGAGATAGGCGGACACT
T9: DNA aptamer; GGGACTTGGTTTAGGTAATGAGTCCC
T10: DNA aptamer; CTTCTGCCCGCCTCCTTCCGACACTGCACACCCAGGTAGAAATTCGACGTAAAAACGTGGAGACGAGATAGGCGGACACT
T11: DNA aptamer; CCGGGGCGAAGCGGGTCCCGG

Nc1ncnc2c1ncn2[C@@H]1O[C@H](COP(=O)(O)OP(=O)(O)OP(=O)(O)O)[C@@H](O)[C@H]1O — Kd (T1, DNA aptamer; electrochemical aptamer sensor; apparent, in serum): 17 µM
COc1cccc2c1C(=O)c1c(O)c3c(c(O)c1C2=O)C[C@@](O)(C(=O)CO)C[C@@H]3O[C@H]1C[C@H](N)[C@H](O)[C@H](C)O1 — Kd (T2, DNA aptamer, truncated, engineered stem; electrochemical aptamer sensor; apparent, one-site fit): 0.824 µM
C[C@@H]1Cc2ccc(C(=O)N[C@@H](Cc3ccccc3)C(=O)O)c(O)c2C(=O)O1 — Kd (T3, DNA aptamer; ITC; pH 7.4, 23 °C, reverse titration; single-site fit, with: 10 mM MgCl2): 74.1 µM
CC(=O)N[C@H]1C(O)O[C@H](CO)[C@H](O)[C@@H]1O (stereo partly drawn) — Kd (T4, DNA aptamer 25 nt core; SPR): 0.0598 µM
O=[N+]([O-])N=C1NCCN1Cc1ccc(Cl)nc1 — Kd (T5, DNA aptamer; differential pulse voltammetry; 30 min, pH 7.5, Na+ 150 mM, Mg2+ 2 mM): 0.0201 µM
Nc1ncnc2c1ncn2[C@@H]1O[C@H](COP(=O)(O)OP(=O)(O)OP(=O)(O)O)[C@@H](O)[C@H]1O — Kd (T1, DNA aptamer; square wave voltammetry; apparent, electrochemical aptamer sensor, assumed saturation): 206 µM
COc1cccc2c1C(=O)c1c(O)c3c(c(O)c1C2=O)C[C@@](O)([C@@H](O)CO)C[C@@H]3O[C@H]1C[C@H](N)[C@H](O)[C@H](C)O1 — Kd (T6, DNA aptamer; SWV; pH 7.4, apparent): 2.56 µM
NC[C@H]1O[C@H](O[C@H]2[C@H](O)[C@@H](O[C@H]3O[C@H](CO)[C@@H](O)[C@H](N)[C@H]3O)[C@H](N)C[C@@H]2N)[C@H](O)[C@@H](O)[C@@H]1O — Kd (T7, DNA aptamer 50 nt truncation; MST; 25 °C, NaCl 100 mM): 400 µM
CC(C)=CCC[C@](C)(O[C@@H]1O[C@H](CO)[C@@H](O)[C@H](O)[C@H]1O)[C@H]1CC[C@]2(C)[C@@H]1[C@H](O)C[C@@H]1[C@@]3(C)CC[C@H](O)C(C)(C)[C@@H]3[C@@H](O[C@@H]3O[C@H](CO)[C@@H](O)[C@H](O)[C@H]3O[C@@H]3O[C@@H](C)[C@H](O)[C@@H](O)[C@H]3O)C[C@]12C — Kd (T8, DNA aptamer; fluorescence of eluted aptamer; pH 8.5, room temperature): 16.9 µM
NC[C@H]1O[C@H](O[C@H]2[C@H](O)[C@@H](O[C@H]3O[C@H](CO)[C@@H](O)[C@H](N)[C@H]3O)[C@H](N)C[C@@H]2N)[C@H](N)C[C@@H]1O — Kd (T9, DNA aptamer; intermittent pulse amperometry; NaCl 100 mM, apparent): 5 µM
CC(C)=CCC[C@](C)(O[C@@H]1O[C@H](CO[C@@H]2O[C@H](CO)[C@@H](O)[C@H](O)[C@H]2O)[C@@H](O)[C@H](O)[C@H]1O)[C@H]1CC[C@]2(C)[C@@H]1[C@H](O)C[C@@H]1[C@@]3(C)CC[C@H](O[C@@H]4O[C@H](CO)[C@@H](O)[C@H](O)[C@H]4O[C@@H]4O[C@H](CO)[C@@H](O)[C@H](O)[C@H]4O)C(C)(C)[C@@H]3CC[C@]12C — Kd (T10, DNA aptamer; fluorescence of eluted aptamer; pH 8.5, room temperature): 12.5 µM
C[C@@H]1Cc2c(Cl)cc(C(=O)N[C@@H](Cc3ccccc3)C(=O)O)c(O)c2C(=O)O1 — Kd (T11, DNA aptamer; ITC; pH 7.4, 23 °C, reverse titration; single-site fit, with: 10 mM MgCl2): 3.4 µM

Some of these lines once more:
C[C@@H]1Cc2c(Cl)cc(C(=O)N[C@@H](Cc3ccccc3)C(=O)O)c(O)c2C(=O)O1 — Kd (T11, DNA aptamer; ITC; pH 7.4, 23 °C, reverse titration; single-site fit, with: 10 mM MgCl2): 3.4 µM
Nc1ncnc2c1ncn2[C@@H]1O[C@H](COP(=O)(O)OP(=O)(O)OP(=O)(O)O)[C@@H](O)[C@H]1O — Kd (T1, DNA aptamer; electrochemical aptamer sensor; apparent, in serum): 17 µM
